Measured values collected from several papers.
Numbered parts are unrelated; each lists some results of a single study.
Sequence of UniProt P42336 (whole entry, unmodified, looked up): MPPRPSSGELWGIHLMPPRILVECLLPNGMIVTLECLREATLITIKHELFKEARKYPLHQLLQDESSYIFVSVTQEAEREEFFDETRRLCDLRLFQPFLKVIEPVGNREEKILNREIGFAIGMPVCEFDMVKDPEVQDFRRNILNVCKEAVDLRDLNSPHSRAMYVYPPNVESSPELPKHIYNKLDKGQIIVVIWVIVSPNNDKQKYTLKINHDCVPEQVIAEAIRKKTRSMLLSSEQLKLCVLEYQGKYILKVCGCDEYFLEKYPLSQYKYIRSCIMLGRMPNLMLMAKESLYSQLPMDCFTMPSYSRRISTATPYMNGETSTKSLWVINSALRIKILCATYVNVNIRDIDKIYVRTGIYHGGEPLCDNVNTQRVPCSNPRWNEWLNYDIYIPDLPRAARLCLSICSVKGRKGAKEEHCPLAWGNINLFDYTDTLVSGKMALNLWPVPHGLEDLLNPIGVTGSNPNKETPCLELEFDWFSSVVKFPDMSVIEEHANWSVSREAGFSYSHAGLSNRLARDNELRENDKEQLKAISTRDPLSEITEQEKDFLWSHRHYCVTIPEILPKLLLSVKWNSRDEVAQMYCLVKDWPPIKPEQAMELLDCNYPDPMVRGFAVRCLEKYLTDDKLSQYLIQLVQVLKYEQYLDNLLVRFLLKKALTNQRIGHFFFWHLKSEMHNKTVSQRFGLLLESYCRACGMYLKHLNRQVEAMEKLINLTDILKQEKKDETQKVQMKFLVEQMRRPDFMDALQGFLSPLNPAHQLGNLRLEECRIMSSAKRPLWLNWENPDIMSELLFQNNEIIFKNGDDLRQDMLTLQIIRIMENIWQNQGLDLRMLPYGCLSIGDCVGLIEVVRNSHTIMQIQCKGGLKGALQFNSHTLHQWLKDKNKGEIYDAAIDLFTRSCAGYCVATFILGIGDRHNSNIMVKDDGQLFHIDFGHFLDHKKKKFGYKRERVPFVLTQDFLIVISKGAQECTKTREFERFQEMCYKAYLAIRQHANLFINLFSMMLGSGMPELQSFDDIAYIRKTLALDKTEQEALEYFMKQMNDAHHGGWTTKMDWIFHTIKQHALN
Sequence of UniProt O75747 (whole entry, looked up): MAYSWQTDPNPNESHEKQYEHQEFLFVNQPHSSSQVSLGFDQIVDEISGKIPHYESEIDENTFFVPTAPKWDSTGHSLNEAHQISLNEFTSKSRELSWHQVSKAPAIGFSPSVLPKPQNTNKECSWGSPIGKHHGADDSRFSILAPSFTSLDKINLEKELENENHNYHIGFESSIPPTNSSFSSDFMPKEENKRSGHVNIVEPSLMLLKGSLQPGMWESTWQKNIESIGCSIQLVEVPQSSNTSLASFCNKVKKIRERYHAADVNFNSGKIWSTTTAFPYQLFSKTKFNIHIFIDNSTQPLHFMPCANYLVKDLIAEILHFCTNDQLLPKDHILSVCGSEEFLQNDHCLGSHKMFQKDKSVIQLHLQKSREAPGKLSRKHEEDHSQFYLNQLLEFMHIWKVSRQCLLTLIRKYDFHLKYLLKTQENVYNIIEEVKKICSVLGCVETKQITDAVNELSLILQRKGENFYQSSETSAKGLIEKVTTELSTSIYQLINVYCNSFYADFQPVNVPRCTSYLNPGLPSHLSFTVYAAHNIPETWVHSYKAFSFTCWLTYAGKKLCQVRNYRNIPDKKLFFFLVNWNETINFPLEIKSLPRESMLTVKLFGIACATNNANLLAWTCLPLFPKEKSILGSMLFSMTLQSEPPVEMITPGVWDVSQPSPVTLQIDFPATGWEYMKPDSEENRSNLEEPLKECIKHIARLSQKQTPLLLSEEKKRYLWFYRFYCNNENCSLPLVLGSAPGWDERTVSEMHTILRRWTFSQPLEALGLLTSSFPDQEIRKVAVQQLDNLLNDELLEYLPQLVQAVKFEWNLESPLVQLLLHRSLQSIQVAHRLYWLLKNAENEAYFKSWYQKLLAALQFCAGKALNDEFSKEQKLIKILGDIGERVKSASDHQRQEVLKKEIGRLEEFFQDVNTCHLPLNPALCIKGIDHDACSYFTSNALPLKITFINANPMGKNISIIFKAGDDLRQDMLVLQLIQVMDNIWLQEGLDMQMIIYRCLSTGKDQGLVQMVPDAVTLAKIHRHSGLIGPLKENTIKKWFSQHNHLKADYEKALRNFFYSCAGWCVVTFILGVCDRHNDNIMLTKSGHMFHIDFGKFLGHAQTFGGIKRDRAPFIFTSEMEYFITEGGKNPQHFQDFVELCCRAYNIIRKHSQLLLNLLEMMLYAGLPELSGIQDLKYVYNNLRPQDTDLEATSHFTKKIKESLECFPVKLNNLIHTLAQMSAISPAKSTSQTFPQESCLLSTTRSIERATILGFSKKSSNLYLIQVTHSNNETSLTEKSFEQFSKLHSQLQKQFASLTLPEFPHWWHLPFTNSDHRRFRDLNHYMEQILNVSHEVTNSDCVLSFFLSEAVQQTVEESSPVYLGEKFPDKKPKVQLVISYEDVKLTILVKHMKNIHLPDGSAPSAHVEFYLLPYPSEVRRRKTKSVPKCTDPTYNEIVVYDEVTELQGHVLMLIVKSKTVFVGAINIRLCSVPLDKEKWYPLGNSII
Sequence of UniProt O75582 (whole entry, looked up): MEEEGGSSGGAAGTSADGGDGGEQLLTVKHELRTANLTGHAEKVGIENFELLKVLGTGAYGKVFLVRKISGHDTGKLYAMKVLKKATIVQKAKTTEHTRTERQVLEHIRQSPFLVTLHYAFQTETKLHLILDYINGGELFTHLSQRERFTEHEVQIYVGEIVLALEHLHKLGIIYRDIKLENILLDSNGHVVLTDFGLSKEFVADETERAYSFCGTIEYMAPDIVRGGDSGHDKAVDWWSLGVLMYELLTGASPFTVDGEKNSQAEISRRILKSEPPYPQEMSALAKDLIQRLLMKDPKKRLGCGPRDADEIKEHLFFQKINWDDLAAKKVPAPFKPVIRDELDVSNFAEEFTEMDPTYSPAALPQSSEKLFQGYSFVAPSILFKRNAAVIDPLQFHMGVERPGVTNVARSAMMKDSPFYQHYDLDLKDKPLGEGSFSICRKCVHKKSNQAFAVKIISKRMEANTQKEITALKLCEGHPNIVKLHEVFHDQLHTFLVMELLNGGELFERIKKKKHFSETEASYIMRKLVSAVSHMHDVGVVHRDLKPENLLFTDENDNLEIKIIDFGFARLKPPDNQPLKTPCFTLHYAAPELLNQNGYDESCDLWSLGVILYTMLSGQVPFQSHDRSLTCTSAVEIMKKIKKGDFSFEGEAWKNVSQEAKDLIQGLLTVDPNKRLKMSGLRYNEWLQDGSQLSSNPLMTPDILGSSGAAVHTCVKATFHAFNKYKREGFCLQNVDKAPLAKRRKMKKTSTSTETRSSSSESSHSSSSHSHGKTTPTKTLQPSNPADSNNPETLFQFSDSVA
Sequence of UniProt Q9UHD2 (whole entry, looked up): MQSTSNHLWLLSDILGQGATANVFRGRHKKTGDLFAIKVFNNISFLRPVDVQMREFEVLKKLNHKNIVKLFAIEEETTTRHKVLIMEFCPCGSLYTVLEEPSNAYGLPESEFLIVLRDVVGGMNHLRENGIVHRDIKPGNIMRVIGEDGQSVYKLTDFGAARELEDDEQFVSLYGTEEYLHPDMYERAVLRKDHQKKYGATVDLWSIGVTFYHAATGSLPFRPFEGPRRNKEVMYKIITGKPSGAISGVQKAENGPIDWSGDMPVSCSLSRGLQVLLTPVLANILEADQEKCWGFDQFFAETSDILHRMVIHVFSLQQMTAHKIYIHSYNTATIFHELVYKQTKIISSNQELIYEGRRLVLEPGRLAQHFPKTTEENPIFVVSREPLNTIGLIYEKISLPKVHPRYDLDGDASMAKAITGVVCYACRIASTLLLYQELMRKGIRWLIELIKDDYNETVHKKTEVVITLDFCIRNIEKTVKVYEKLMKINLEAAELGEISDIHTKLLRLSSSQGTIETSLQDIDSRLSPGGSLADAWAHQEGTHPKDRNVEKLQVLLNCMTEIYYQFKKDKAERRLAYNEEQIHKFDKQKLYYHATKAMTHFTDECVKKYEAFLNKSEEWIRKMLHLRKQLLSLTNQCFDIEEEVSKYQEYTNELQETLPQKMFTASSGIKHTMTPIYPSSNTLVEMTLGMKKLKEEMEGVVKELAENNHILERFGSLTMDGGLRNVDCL
Sequence of UniProt Q6PHR2 (whole entry, looked up): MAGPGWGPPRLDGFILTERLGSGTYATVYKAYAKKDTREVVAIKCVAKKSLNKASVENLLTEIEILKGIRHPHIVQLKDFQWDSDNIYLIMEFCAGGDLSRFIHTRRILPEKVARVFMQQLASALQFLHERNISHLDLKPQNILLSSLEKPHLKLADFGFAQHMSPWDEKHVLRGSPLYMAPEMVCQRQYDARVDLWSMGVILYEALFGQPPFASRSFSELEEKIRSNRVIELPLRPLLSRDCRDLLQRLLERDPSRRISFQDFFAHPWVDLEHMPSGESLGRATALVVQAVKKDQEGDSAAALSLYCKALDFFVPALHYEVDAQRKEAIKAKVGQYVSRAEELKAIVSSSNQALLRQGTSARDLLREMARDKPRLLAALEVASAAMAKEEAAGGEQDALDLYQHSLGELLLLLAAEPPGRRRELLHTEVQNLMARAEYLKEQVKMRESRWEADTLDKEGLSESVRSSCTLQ

Sample 1
Target: Ribosomal protein S6 kinase beta-2 (RPS6KB2, Homo sapiens, UniProt Q9UBS0)
Sequence of UniProt Q9UBS0 (whole entry, looked up): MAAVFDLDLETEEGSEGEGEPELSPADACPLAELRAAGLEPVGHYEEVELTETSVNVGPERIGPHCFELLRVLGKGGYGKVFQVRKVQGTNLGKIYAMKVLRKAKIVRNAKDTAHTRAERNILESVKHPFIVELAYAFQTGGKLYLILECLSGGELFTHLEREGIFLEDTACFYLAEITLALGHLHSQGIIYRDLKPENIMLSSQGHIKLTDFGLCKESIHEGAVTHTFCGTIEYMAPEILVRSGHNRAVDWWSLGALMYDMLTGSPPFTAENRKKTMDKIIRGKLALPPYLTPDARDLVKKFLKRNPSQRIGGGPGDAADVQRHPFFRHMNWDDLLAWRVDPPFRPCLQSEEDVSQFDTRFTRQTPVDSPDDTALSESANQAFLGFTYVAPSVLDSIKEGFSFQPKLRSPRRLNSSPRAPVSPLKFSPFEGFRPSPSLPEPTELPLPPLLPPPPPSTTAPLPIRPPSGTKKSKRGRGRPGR
Effect on: enzyme activity
Mode: inhibitor
Concentration: 0.5 µM
Baseline: control
| SMILES | remaining activity [%] |
| --- | --- |
| Cc1ccc(NC2=CC(=O)c3sc(C)nc3C2=O)cc1 | 95.2 |
| CC(C)(C)n1nc(Cc2cccc3ccccc23)c2c(N)ncnc21 | 92.7 |
| Nc1nc(Nc2ccc(S(N)(=O)=O)cc2)nn1C(=O)c1c(F)cccc1F | 104 |
| CCCC(=O)Oc1ccc2[nH]c(C(=O)c3cc4ccccc4[nH]3)cc2c1 | 102 |
| O=S(=O)(NCCNC/C=C/c1ccc(Br)cc1)c1cccc2cnccc12 | 71.9 |
| Cc1cncc2cccc(S(=O)(=O)N3CCCN(C(=O)CN)C[C@@H]3C)c12 | 99.3 |
| NC(=O)c1ccc(N(C(N)=O)c2c(F)cccc2F)nc1-c1ccc(F)cc1F | 100 |
| O=C1NC(=O)C(c2c[nH]c3ccccc23)=C1c1c[nH]c2ccccc12 | 94.6 |
| CC[n+]1c(/C=C/N(C)c2ccccc2)n(-c2ccccc2)c2ccc(-c3nc4ccccc4s3)cc21 | 93.2 |
| CC#CC(=O)Nc1cc2c(Nc3ccc(F)c(Cl)c3)ncnc2cn1 | 97.2 |
| Fc1ccc(-c2nc3n(c2-c2ccncc2)CCS3)cc1 | 85.6 |
| Cc1cc(Nc2nc(-c3ccccc3)nc3ccccc23)n[nH]1 | 99.7 |
| CC(=O)c1ccc(N2CCOCC2)cc1O | 101 |
| CCc1[nH]c(-c2ccc(OC)cc2)nc1-c1ccncc1 | 95.6 |
| Nc1nccc(-c2c(-c3ccc(F)cc3)ncn2C2CCNCC2)n1 | 90.9 |
| COc1ccc(S(=O)(=O)N(CCO)c2ccccc2CN(C)CC=Cc2ccc(Cl)cc2)cc1 | 97.1 |
| O=C1Cc2c([nH]c3ccc([N+](=O)[O-])cc23)-c2ccccc2N1 | 96.5 |
| CSc1nc(-c2ccnc(N[C@@H](C)c3ccccc3)c2)c(-c2ccc(F)cc2)[nH]1 (racemic) | 92.8 |
| N#CC(=C(N)Sc1ccc(N)cc1)c1ccccc1C(F)(F)F | 105 |
| COc1cc(Nc2c(C#N)cnc3cc(OCCCN4CCN(C)CC4)c(OC)cc23)c(Cl)cc1Cl | 107 |
| Oc1ccc(Nc2nc(-c3ccc(Cl)cc3)cs2)cc1 | 99.8 |
| Nc1ncnc2c1cnn2-c1ccccc1 | 87.5 |

Sample 2
Compound: Cc1c(NC(=O)c2cc(C(N)=O)nc3cc(F)ccc23)c(C(F)(F)F)nn1Cc1ccc(C#N)cc1
Technique: competition with immobilised ligand
Concentration: 1 µM
| target | assay | remaining binding |
| --- | --- | --- |
| Serine/threonine-protein kinase mTOR (MTOR, Homo sapiens, UniProt P42345) | cell-free assay | 93% |
| Serine/threonine-protein kinase ULK3 (ULK3, Homo sapiens, UniProt Q6PHR2) | cell-free assay | 74% |
| Mitogen-activated protein kinase 14 (MAPK14, Homo sapiens, UniProt Q16539) | cell-free assay | 91% |
| Serine/threonine-protein kinase SIK3 (SIK3, Homo sapiens, UniProt Q9Y2K2) | cell-free assay | 81% |
| Mitogen-activated protein kinase kinase kinase 9 (MAP3K9, Homo sapiens, UniProt P80192) | cell-free assay | 100% |
| Serine/threonine-protein kinase D2 (PRKD2, Homo sapiens, UniProt Q9BZL6) | cell-free assay | 100% |
| Macrophage-stimulating protein receptor (MST1R, Homo sapiens, UniProt Q04912) | cell-free assay | 76% |
| Non-receptor tyrosine-protein kinase TYK2, JH2 (TYK2, Homo sapiens, UniProt P29597) | cell-free assay | 77% |
| Serine/threonine-protein kinase TAO2 (TAOK2, Homo sapiens, UniProt Q9UL54) | cell-free assay | 85% |
| Tyrosine-protein kinase ABL1, phosphorylated (ABL1, Homo sapiens, UniProt P00519, E255K) | binding | 76% |
| Serine/threonine-protein kinase 25 (STK25, Homo sapiens, UniProt O00506) | cell-free assay | 100% |
| Tyrosine-protein kinase ABL1, phosphorylated (ABL1, Homo sapiens, UniProt P00519, F317L) | cell-free assay | 81% |
| Phosphatidylinositol 4,5-bisphosphate 3-kinase catalytic subunit alpha isoform (PIK3CA, Homo sapiens, UniProt P42336) | cell-free assay | 100% |
| Phosphatidylinositol 4,5-bisphosphate 3-kinase catalytic subunit alpha isoform (PIK3CA, Homo sapiens, UniProt P42336, C420R) | cell-free assay | 70% |
| Serine/threonine-protein kinase TBK1 (TBK1, Homo sapiens, UniProt Q9UHD2) | cell-free assay | 70% |
| Mitogen-activated protein kinase 9 (MAPK9, Homo sapiens, UniProt P45984) | cell-free assay | 77% |
| Phosphorylase b kinase gamma catalytic chain, skeletal muscle/heart isoform (PHKG1, Homo sapiens, UniProt Q16816) | cell-free assay | 100% |
| Tyrosine-protein kinase CSK (CSK, Homo sapiens, UniProt P41240) | cell-free assay | 100% |
| 3-phosphoinositide-dependent protein kinase 1 (PDPK1, Homo sapiens, UniProt O15530) | cell-free assay | 73% |
| Ribosomal protein S6 kinase alpha-5, N-terminal kinase domain (RPS6KA5, Homo sapiens, UniProt O75582) | cell-free assay | 97% |
| Phosphatidylinositol 3-kinase C2 domain-containing subunit gamma (PIK3C2G, Homo sapiens, UniProt O75747) | binding | 61% |
| Serine/threonine-protein kinase PAK 6 (PAK6, Homo sapiens, UniProt Q9NQU5) | cell-free assay | 100% |
| Cyclin-dependent kinase 8 (CDK8, Homo sapiens, UniProt P49336) | cell-free assay | 56% |
| Tyrosine-protein kinase ABL1, non-phosphorylated (ABL1, Homo sapiens, UniProt P00519, Q252H) | cell-free assay | 100% |
| Interleukin-1 receptor-associated kinase 4 (IRAK4, Homo sapiens, UniProt Q9NWZ3) | cell-free assay | 84% |

Sample 3
Host: mouse
Matrix: microsomes or S9
Concentration: 2 µM
Time: 0.5 h
| SMILES | remaining compound [%] |
| --- | --- |
| CCNC(=O)NCCc1ccc(OC)c(Nc2ncc(Cl)c(Nc3ccccc3S(=O)(=O)C(C)C)n2)c1 | 9.16 |
| O=C(NNc1ncnc2[nH]cnc12)C1CCCCC1 | 84.4 |
| Cc1nn(CC(=O)NCCN2CCCCC2C)c(C)c1C (stereo not drawn) | 0.154 |
| CN(C)S(=O)(=O)c1ccc(Br)c2ccccc12 | 25 |
| Cc1ccc(Nc2nc(Cl)nc(NC(C)C)n2)cc1 | 0.0493 |
| CC1CCN(C(=O)c2cc3c([nH]2)CCOC3)c2c(O)cccc21 (stereo not drawn) | 19.5 |
| O=S(=O)(c1ccccc1)n1ccc2ncccc21 | 36.2 |
| CCC(C)NC(=O)Cn1nc2n(CCC(=O)NCC(C)C)c(=O)c3ccccc3n2c1=O (stereo not drawn) | 40.9 |
| CC/C(=C(\c1ccccc1)c1ccc(OCCN(C)C)cc1)c1ccccc1 | 10.6 |
| Cc1cc(Br)ccc1OCCOCCN1CC(C)OC(C)C1 (stereo not drawn) | 0.159 |
| COC(=O)c1c(CCc2ccc(OC)cc2)nc(CCc2ccccc2)c(O)c1C(=O)OC | 6.52 |
| CC(=O)c1ccc(N2CCC(OC(=O)CCc3nnc[nH]3)CC2)cc1 | 0.0607 |
| Cc1ccc(C(=O)N2CCc3c([nH]cnc3=O)C2)s1 | 9.58 |
| O=C(c1ccccc1)c1cc(Cl)ccc1Nc1cc(Br)cc2c1N(c1ncccn1)CC2 | 16.9 |
| Cc1cccc(OCC(O)Cn2nc(C)c3c(C)onc3c2=O)c1 (stereo not drawn) | 22.8 |
| Cc1ccccc1/N=C1\Nc2cccc3cccc1c23 | 4.56 |
| CCOc1cc(=O)n2c(c1C(=O)NCc1cccc(F)c1)CCCCC2 | 12.5 |
| Cc1ccn(S(=O)(=O)c2cc(C)c(C)cc2Br)n1 | 0.432 |
| CC(C)Oc1ccc(C(=O)O)cc1NC(=O)c1cccn1C | 63.9 |

Sample 4
Technique: logD(dd/w) and ALogP
Notes: JT method
| Structure (SMILES) | lipophilic permeability efficiency |
| --- | --- |
| CC(C)C[C@@H]1NC(=O)[C@H](CC(C)C)NC(=O)[C@@H](CC(C)C)NC(=O)[C@H](C)NC(=O)[C@@H](Cc2cscn2)NC(=O)[C@H](C)NC(=O)[C@H](CCC(=O)N2CCCC2)NC1=O | 1.8 |
| CC(C)C[C@@H]1NC(=O)[C@H](C(C)C)NC(=O)[C@@H](CC(C)C)NC(=O)[C@@H](CC(C)C)NC(=O)[C@@H](CCC(=O)N2CCCC2)NC(=O)[C@H](CC(C)C)NC(=O)[C@@H](CC(C)C)NC1=O | 2.22 |
| CC(C)C[C@@H]1NC(=O)[C@H](C)NC(=O)[C@H](CCC(=O)N2CCCC2)NC(=O)[C@H](CC(C)C)NC(=O)[C@@H](Cc2cscn2)NC(=O)[C@H](CC(C)C)NC(=O)[C@@H](CC(C)C)NC1=O | 1.49 |
| CC(C)C[C@@H]1NC(=O)[C@H](C)NC(=O)[C@H](CCC(=O)N2CCCC2)NC(=O)[C@H](CCC(=O)N2CCCC2)NC(=O)[C@@H](CCC(=O)N2CCCC2)NC(=O)[C@H](CC(C)C)NC(=O)[C@@H](CC(C)C)NC1=O | 2.47 |
| CC(C)C[C@@H]1NC(=O)[C@H](Cc2cscn2)NC(=O)[C@H](CCC(=O)N2CCCC2)NC(=O)[C@@H](CCC(=O)N2CCCC2)NC(=O)[C@H](CC(C)C)NC(=O)[C@@H](CC(C)C)NC(=O)[C@H](CC(C)C)NC1=O | 1.92 |
| CC(C)C[C@@H]1NC(=O)[C@H](C)NC(=O)[C@H](CC(C)C)NC(=O)[C@@H](CC(C)C)NC(=O)[C@H](CC(C)C)NC(=O)[C@@H](C)NC(=O)[C@@H](CC(C)C)NC1=O | 1.79 |
| CC(C)C[C@@H]1NC(=O)[C@H](Cc2cscn2)NC(=O)[C@H](CCC(=O)N2CCCC2)NC(=O)[C@H](CCC(=O)N2CCCC2)NC(=O)[C@@H](Cc2cscn2)NC(=O)[C@H](CC(C)C)NC(=O)[C@@H](CC(C)C)NC1=O | 1.5 |
| CC(C)C[C@@H]1NC(=O)[C@H](CC(C)C)NC(=O)[C@@H](CC(C)C)NC(=O)[C@H](C(C)C)NC(=O)[C@H](C)NC(=O)[C@@H](CC(C)C)NC(=O)[C@H](C)NC1=O | 2.43 |
| CC(C)C[C@@H]1NC(=O)[C@H](CC(C)C)NC(=O)[C@H](CC(C)C)NC(=O)[C@H](C(C)C)NC(=O)[C@@H](CCC(=O)N2CCCC2)NC(=O)[C@H](C)NC(=O)[C@H](C)NC1=O | 2.07 |
| CC(C)C[C@@H]1NC(=O)[C@H](CC(C)C)NC(=O)[C@@H](C(C)C)NC(=O)[C@H](C(C)C)NC(=O)[C@H](C)NC(=O)[C@H](Cc2cscn2)NC(=O)[C@H](CCC(=O)N2CCCC2)NC1=O | 1.23 |
| CC(C)C[C@@H]1NC(=O)[C@H](Cc2cscn2)NC(=O)[C@H](C)NC(=O)[C@@H](CC(C)C)NC(=O)[C@@H](CCC(=O)N2CCCC2)NC(=O)[C@H](CC(C)C)NC(=O)[C@@H](CC(C)C)NC1=O | 2.6 |
| CC(C)C[C@@H]1NC(=O)[C@H](CC(C)C)NC(=O)[C@@H](C(C)C)NC(=O)[C@H](C(C)C)NC(=O)[C@H](C(C)C)NC(=O)[C@H](C)NC(=O)[C@H](C)NC1=O | 1.82 |
| CC(C)C[C@@H]1NC(=O)[C@H](CC(C)C)NC(=O)[C@@H](C(C)C)NC(=O)[C@@H](C)NC(=O)[C@H](C)NC(=O)[C@@H](CC(C)C)NC(=O)[C@H](C)NC1=O | 1.99 |
| CC(C)C[C@@H]1NC(=O)[C@H](CC(C)C)NC(=O)[C@@H](CC(C)C)NC(=O)[C@H](C)NC(=O)[C@@H](Cc2cscn2)NC(=O)[C@@H](CC(C)C)NC(=O)[C@H](C)NC1=O | 2.39 |
| CC(C)C[C@@H]1NC(=O)[C@H](C)NC(=O)[C@@H](CC(C)C)NC(=O)[C@H](C)NC(=O)[C@@H](CCC(=O)N2CCCC2)NC(=O)[C@H](CC(C)C)NC(=O)[C@@H](CC(C)C)NC1=O | 2.29 |

For quick reference, copied from above (sample 3):
| SMILES | remaining compound [%] |
| --- | --- |
| Cc1nn(CC(=O)NCCN2CCCCC2C)c(C)c1C (stereo not drawn) | 0.154 |
| Cc1ccccc1/N=C1\Nc2cccc3cccc1c23 | 4.56 |
| CCOc1cc(=O)n2c(c1C(=O)NCc1cccc(F)c1)CCCCC2 | 12.5 |
| CC(C)Oc1ccc(C(=O)O)cc1NC(=O)c1cccn1C | 63.9 |
| O=C(NNc1ncnc2[nH]cnc12)C1CCCCC1 | 84.4 |
| O=S(=O)(c1ccccc1)n1ccc2ncccc21 | 36.2 |
| CC1CCN(C(=O)c2cc3c([nH]2)CCOC3)c2c(O)cccc21 (stereo not drawn) | 19.5 |
| Cc1cccc(OCC(O)Cn2nc(C)c3c(C)onc3c2=O)c1 (stereo not drawn) | 22.8 |
